Results collected from several papers.
Compare with care: the assays were run in different laboratories. Numbers after ± are the reported error.
SLCO1B3: Solute carrier organic anion transporter family member 1B3 (SLCO1B3, Homo sapiens, UniProt Q9NPD5)
UniProt Q9NPD5, sequence (whole entry, looked up): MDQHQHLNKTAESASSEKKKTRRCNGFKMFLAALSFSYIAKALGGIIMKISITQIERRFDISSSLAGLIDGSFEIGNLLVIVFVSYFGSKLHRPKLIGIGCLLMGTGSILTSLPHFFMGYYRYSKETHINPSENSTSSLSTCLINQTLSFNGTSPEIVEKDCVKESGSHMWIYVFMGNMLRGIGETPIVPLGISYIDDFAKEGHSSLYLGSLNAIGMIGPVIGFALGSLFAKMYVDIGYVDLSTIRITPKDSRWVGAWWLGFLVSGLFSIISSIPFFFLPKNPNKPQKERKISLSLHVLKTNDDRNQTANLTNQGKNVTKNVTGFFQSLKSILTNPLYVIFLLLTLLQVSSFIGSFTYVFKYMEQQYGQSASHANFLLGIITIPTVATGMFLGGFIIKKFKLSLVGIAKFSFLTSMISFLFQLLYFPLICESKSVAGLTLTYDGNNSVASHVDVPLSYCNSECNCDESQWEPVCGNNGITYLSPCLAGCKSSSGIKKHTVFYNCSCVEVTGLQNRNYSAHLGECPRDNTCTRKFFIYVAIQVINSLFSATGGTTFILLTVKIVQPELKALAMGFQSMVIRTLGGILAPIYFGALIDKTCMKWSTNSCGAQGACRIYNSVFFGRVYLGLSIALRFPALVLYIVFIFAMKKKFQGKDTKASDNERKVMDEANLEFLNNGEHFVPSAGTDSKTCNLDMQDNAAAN
SLC22A2: Solute carrier family 22 member 2 (SLC22A2, Homo sapiens, UniProt O15244)
CACNA1C: Voltage-dependent L-type calcium channel subunit alpha-1C (CACNA1C, Homo sapiens, UniProt Q13936)
UniProt Q13936, sequence (whole entry, looked up): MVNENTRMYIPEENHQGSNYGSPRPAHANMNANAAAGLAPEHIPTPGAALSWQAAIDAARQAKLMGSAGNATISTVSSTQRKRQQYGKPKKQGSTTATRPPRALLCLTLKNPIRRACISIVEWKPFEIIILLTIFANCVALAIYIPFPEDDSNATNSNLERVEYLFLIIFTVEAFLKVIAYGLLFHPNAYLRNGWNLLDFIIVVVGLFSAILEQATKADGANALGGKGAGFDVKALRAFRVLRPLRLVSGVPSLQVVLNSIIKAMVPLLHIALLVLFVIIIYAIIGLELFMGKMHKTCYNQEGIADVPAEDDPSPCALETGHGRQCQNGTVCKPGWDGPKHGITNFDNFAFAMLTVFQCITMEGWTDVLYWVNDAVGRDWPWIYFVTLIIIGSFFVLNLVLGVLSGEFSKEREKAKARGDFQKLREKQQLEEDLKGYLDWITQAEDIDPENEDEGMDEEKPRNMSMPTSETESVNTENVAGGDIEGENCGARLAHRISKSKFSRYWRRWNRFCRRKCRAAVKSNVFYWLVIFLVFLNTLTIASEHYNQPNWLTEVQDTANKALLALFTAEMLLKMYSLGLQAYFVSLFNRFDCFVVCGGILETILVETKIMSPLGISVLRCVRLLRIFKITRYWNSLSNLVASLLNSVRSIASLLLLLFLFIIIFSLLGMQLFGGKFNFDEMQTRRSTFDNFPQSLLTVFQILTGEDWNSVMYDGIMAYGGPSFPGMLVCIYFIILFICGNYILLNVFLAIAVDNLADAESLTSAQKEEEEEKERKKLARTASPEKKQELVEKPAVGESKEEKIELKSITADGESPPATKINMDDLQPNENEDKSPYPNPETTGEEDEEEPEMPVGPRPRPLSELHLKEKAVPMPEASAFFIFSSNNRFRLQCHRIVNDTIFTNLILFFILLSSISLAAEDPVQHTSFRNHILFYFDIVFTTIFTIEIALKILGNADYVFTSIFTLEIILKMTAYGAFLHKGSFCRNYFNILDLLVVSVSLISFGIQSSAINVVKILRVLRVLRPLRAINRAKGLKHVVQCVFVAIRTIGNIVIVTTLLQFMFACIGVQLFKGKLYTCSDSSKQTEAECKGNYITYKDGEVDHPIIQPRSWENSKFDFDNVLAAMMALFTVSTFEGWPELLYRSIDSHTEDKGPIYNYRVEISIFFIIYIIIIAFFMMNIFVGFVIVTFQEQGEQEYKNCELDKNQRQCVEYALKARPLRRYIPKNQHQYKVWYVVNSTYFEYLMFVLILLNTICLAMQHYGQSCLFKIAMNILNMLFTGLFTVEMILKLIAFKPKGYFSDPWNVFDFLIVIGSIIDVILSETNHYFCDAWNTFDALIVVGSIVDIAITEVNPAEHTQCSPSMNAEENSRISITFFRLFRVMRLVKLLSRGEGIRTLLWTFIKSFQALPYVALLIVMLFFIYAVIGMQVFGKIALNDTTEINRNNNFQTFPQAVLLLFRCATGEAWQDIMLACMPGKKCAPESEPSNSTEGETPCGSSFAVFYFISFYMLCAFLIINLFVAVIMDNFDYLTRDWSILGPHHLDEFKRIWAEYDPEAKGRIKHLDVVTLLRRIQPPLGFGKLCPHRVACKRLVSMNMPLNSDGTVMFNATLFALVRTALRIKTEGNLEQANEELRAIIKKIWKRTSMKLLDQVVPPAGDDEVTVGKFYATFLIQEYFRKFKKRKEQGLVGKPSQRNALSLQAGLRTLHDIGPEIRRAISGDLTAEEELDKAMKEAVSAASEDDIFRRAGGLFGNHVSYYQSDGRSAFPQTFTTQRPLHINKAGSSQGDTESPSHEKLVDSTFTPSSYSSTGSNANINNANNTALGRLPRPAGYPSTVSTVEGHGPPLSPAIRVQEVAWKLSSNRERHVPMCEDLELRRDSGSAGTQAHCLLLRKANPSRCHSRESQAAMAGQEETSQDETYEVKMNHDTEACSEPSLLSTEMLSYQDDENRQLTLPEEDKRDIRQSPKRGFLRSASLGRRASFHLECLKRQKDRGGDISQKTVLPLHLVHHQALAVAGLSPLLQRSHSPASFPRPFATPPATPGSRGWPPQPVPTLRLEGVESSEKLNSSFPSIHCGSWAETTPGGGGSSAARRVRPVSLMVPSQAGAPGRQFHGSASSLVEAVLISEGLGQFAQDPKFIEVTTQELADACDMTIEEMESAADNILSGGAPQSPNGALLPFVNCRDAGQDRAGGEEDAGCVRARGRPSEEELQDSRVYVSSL
UniProt Q07011, sequence (whole entry, looked up): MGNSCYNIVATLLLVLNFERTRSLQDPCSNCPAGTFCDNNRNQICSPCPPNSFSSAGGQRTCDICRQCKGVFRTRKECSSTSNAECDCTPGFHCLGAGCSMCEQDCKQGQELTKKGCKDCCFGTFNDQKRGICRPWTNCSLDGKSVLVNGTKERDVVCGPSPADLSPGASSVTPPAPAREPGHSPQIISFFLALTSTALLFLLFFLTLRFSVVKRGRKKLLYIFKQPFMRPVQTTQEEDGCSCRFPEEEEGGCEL
UniProt Q9UQB9, sequence (whole entry, looked up): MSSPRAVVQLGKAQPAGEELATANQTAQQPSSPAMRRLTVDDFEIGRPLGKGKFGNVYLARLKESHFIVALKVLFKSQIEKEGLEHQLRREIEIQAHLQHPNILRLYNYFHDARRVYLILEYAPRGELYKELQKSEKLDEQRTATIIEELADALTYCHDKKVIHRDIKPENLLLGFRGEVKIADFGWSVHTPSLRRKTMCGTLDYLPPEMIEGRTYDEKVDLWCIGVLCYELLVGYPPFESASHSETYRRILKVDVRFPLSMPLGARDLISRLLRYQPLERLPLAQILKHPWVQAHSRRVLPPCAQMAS
UniProt P08684, sequence (whole entry, looked up): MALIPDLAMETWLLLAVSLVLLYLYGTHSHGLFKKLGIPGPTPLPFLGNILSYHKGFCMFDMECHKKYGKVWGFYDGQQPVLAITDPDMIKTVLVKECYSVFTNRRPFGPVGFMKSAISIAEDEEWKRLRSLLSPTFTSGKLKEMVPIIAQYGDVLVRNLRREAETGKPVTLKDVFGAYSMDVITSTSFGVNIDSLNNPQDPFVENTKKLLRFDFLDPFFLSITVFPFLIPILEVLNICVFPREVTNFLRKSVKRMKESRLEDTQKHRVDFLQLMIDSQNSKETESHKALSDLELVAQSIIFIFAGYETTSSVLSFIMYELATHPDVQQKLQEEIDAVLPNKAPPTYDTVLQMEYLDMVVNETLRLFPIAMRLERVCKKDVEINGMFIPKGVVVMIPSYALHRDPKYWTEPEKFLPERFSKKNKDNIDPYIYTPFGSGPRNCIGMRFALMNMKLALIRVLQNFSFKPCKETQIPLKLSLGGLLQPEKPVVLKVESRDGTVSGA

COc1ccccc1-c1n[nH]c2nc(NC3CCN(C(=O)Cc4ccc(F)cc4F)CC3)ncc12  relative abundance (bead binding, competition bead pull-down, refers to: LINJ.30.3000; Leishmania donovani extract; 10 µM; relative to: vehicle): 1.03
O=C1NC2(CC2)COc2ncc(F)cc2[C@H]2COCCN2c2ccn3ncc1c3n2  serum urea (Sprague-Dawley rat, male, serum; oral, 20 mg/kg/day, end of treatment, 4-week subacute toxicity): 6.29 ± 1.84 mmol/L
CNC(=O)C1OC(n2cnc3c(NCc4cccc(I)c4)ncnc32)C(O)C1O (stereo not shown)  inhibition (SLCO1B3; transport, inhibitor; transiently transfected cells; 100 µM, 10 (unit not given), with: CCK-8): 91.7%
CC(=O)NCCCC[C@@H]1NC(=O)[C@H](Cc2c[nH]c3c(C)cccc23)NC(=O)[C@H]([C@@H](C)O)NC(=O)[C@H](CC(N)=O)NC(=O)[C@@H](NC(C)=O)C(C)(C)SSC(C)(C)[C@@H](C(=O)N[C@@H](Cc2ccc(OCCN)cc2)C(=O)N[C@@H](Cc2ccc3ccccc3c2)C(=O)NC2(C(=O)N[C@@H](CCC(=O)O)C(=O)N[C@@H](CC(N)=O)C(=O)N[C@@H](Cc3cccnc3)C(=O)N(C)CC(N)=O)CCOCC2)NC1=O  uptake rate (SLC22A2; substrate; HEK293 expressing SLC22A2; 5 µM, 30 min): 0.449 ± 0.094 pmol/mg/min
CC(C)[C@H]1NC(=O)C[C@H]2/C=C/CCSSC[C@@H](NC1=O)C(=O)N[C@H](Cc1cccc3ccccc13)C(=O)NCC(=O)O2  inhibition (Aurora kinase C (AURKC, Homo sapiens, UniProt Q9UQB9); enzyme activity, inhibitor; 10 µM): -4.4%
CCCCCCCC/C=C/CCCCCCCC(=O)[O][Pt-2]1([OH])([Cl])([NH+]=C(CC)N(C)CCNc2c3ccccc3[nH+]c3ccccc23)[NH]CCC[NH]1.O=[N+]([O-])O.O=[N+]([O-])O  Kd (Albumin (ALB, Homo sapiens, UniProt P02768); binding, fluorescence titration; pH 7.4, recombinant human albumin): 1800 nM
CC[C@H](C)[C@@H]1NC(=O)[C@H]([C@@H](C)O)NC(=O)CNC(=O)[C@H](CCCNC(=N)N)NC(=O)[C@H](CC(C)C)NC(=O)[C@@H]2CSSC[C@H](NC1=O)C(=O)N[C@H](C(=O)N[C@@H](CO)C(=O)NCC(N)=O)CSSC[C@H](NC(=O)[C@H](C)N)C(=O)N[C@@H](C)C(=O)N[C@@H](Cc1c[nH]c3ccccc13)C(=O)N2  cleavage (Chymotrypsinogen A, activated (alpha-chymotrypsin) (Bos taurus, UniProt P00766); substrate, RP-HPLC/ESI-MS; 30 µM, 32 h, pH 7.4, 37 °C, PBS, ratio 1:1000, with: bovine α-chymotrypsin 30 nM): ~10%
CS(C)(=O)=Nc1ccc(-c2ccc(-c3nc4cc(O[C@@H]5CO[C@H]6[C@@H]5OC[C@H]6O)[nH]c4cc3F)cc2)cc1  inhibition (Dual specificity protein kinase CLK4 (CLK4, Homo sapiens, UniProt Q9HAZ1); enzyme activity, inhibitor; 10 µM): 6%
Cc1cc(-c2ccc3ccccc3c2)nnc1NCCN1CCN(C)CC1  inhibition (SLC22A2; transporter uptake, inhibitor; 10 µM): 67%
CC(C)(C)C(=O)OCOP(=O)(OCOC(=O)C(C)(C)C)C1CCCN(O)C1=O (stereo not shown)  log TGI (HOP-62): -5.18 log M
Cc1cc(Nc2nc(C[C@@]3(C(=O)O)CCN(Cc4cccc(Cl)c4F)[C@H](C)C3)cc(C)c2F)n[nH]1  inhibition (CACNA1C; 10 µM, safety pharmacology panel): 6.43%
Cc1nc2cccc(OCC(C)(C)C(=O)NC(C)C)c2c(N)c1C(=O)[O-].[Na+]  revertant colonies per plate (Salmonella typhimurium; TA1537; 0.80 mg per plate, without S9, preincubation): 13 ± 3
O=C(CN1C(=O)C2(CCN(C(=O)c3cnc4[nH]ncc4c3)CC2)c2c(Cl)cccc21)NCC(F)(F)F  IC50 (Cytochrome P450 3A4 (CYP3A4, Homo sapiens, UniProt P08684); enzyme activity, inhibitor): 33000 nM
CC(C)C[C@H](NC(=O)[C@H](CC(C)C)NC(=O)[C@H](CCCCN)NC(=O)[C@H](Cc1ccccc1)NC(=O)[C@@H](NC(=O)[C@H](CCCNC(=N)N)NC(=O)[C@@H](N)CCCCN)C(C)C)C(=O)N[C@@H](CCCCN)C(=O)N[C@@H](CCCNC(=N)N)C(=O)N[C@@H](Cc1ccc(O)cc1)C(=O)N[C@@H](Cc1c[nH]c2ccccc12)C(=O)N[C@@H](CCCNC(=N)N)C(=O)N[C@@H](CCC(N)=O)C(=O)N[C@@H](CC(C)C)C(=O)N[C@@H](CCCCN)C(=O)N[C@@H](CCCCN)C(=O)N1CCC[C@H]1C(=O)N[C@H](C(=O)N[C@@H](CCCNC(=N)N)C(=O)NCCOCCOCC(=O)O)C(C)C  remaining intact peptide (trypsin; enzymatic degradation, HPLC; 2 h, 37 °C, peptide:enzyme 50:1): ~50%
CSc1nc2[nH]nc([N+](=O)[O-])c(=O)n2n1  inhibition (SLC22A2; transport, inhibitor; transiently transfected cells; 100 µM, 10 (unit not given), with: metformin): 21.1%
Cc1ccc(OC[C@@H]2CCCN2C)cc1C(=O)N[C@H](C)c1cc(-c2cnn(C)c2)nc2ccccc12  viability (Vero E6; 125 µM): 8.1%
CC[C@H](C)[C@@H]1NC(=O)[C@H](CO)NC(=O)C(C)(CCCCN)NC(=O)[C@@H]2CSSC[C@@H](C(=O)N[C@@H](Cc3ccc(O)cc3)C(N)=O)NC(=O)[C@H](CCCCN)NC(=O)[C@@H]3CSSC[C@H](NC(=O)[C@H](CCCNC(=N)N)NC(=O)C(C)(CC(C)C)NC(=O)[C@H](CC(=O)O)NC(=O)[C@H](CC(=O)O)NC(=O)[C@H](CCC(=O)O)NC(=O)[C@H](CC(N)=O)NC(=O)[C@H](Cc4c[nH]c5ccccc45)NC(=O)C(C)(CC)NC(=O)CNC(=O)[C@H](CC(N)=O)NC(=O)[C@@H](NC(=O)CNC(=O)[C@H](Cc4ccccc4)NC(=O)CN)CSSC[C@H](NC(=O)[C@H](Cc4ccc(O)cc4)NC(=O)CNC(=O)CNC(=O)[C@H](CCCCN)NC(=O)[C@H](Cc4ccc(O)cc4)NC(=O)[C@H]4CCCN4C(=O)[C@@H]4CCCN4C1=O)C(=O)N[C@@H](C)C(=O)N[C@@H](CCCCN)C(=O)N1CCC[C@@H]1C(=O)NCC(=O)N[C@@H](Cc1ccccc1)C(=O)N[C@@H](C(C)C)C(=O)N3)C(=O)N[C@@H](Cc1c[nH]cn1)C(=O)NC(C)(C)C(=O)N[C@@H](Cc1c[nH]cn1)C(=O)N2 (stereo partly shown)  percent degraded (trypsin; peptide degradation, HPLC; NH4HCO3 CaCl2 buffer; 13.2 µM, 24 h, pH 8.5, room temperature): < 25%
CC(C)=CCC/C(C)=C/CCn1cc(CC(C)(P(=O)(O)O)P(=O)(O)O)nn1  cellular uptake (SLCO1B3; OATP1B3-transfected cells; 50 µM, 5 min, pH 7.4; relative to: mock-transfected cells): 3.5 fold
C/C(=N\OCCCN1CCCCC1)c1ccc(C(F)(F)F)cc1  inhibition (CACNA1C; ion current, antagonist, manual patch clamp; 10 µM): 34.5%
CNC(=O)C1CCCN(C(=O)C2CC3CCC2N3C(=O)[C@@H]2C[C@@H](O)CN2C(=O)NCc2cccc(Cl)c2F)C1 (mixture of isomers)  1-hydroxymidazolam formed (human CYP3A4; time-dependent inhibition; 16.7 µM, preincubation without NADPH, with: midazolam): 1200 ng/mL
CCN(CC)CCOc1ccc(-c2nnn(Cc3ccc(OC)cc3)c2N)cc1  IC50 (SLC22A2; transporter uptake, inhibitor): 660 nM
CCCC[C@@H]1NC(=O)[C@H](Cc2ccc(O)cc2)NC(=O)[C@@H]2CCCN2C(=O)[C@H](CC(=O)O)NC(=O)[C@H](C)NC(=O)[C@H](Cc2ccccc2)NC(=O)[C@@H]2CSCCC(=O)N3CN(CN(C3)C(=O)CCSC[C@@H](C(=O)N[C@@H](CNC(=O)CCOCCOCCOCCN(CCOCCOCCOCCn3cc(CCC(=O)NCCC(=O)N[C@H]4CSCCC(=O)N5CN6CN(C5)C(=O)CCSC[C@H](NC(=O)[C@@H](CC(=O)O)NC(=O)[C@H](Cc5cccc7ccccc57)NC(=O)[C@@H]5CCCN5C4=O)C(=O)N[C@@H](CCSC)C(=O)N[C@@H](CCCCNC(=N)N)C(=O)N[C@@H](CC(=O)O)C(=O)N[C@@H](Cc4c[nH]c5ccccc45)C(=O)N[C@@H](CO)C(=O)N[C@@H]([C@@H](C)O)C(=O)N4CCC[C@H]4C(=O)N4C[C@H](O)C[C@H]4C(=O)N[C@@H](Cc4c[nH]c5ccccc45)C(=O)N[C@H](C(N)=O)CSCCC6=O)nn3)CCOCCOCCOCCn3cc(CCC(=O)NCCC(=O)N[C@H]4CSCCC(=O)N5CN6CN(C5)C(=O)CCSC[C@H](NC(=O)[C@@H](CC(=O)O)NC(=O)[C@H](Cc5cccc7ccccc57)NC(=O)[C@@H]5CCCN5C4=O)C(=O)N[C@@H](CCSC)C(=O)N[C@@H](CCCCNC(=N)N)C(=O)N[C@@H](CC(=O)O)C(=O)N[C@@H](Cc4c[nH]c5ccccc45)C(=O)N[C@@H](CO)C(=O)N[C@@H]([C@@H](C)O)C(=O)N4CCC[C@H]4C(=O)N4C[C@H](O)C[C@H]4C(=O)N[C@@H](Cc4c[nH]c5ccccc45)C(=O)N[C@H](C(N)=O)CSCCC6=O)nn3)C(N)=O)NC1=O)C(=O)CCSC[C@H](NC(C)=O)C(=O)N[C@@H](CC(C)(C)C)C(=O)N1CCC[C@H]1C(=O)N[C@@H](CCC(=O)O)C(=O)N[C@H](C)C(=O)N1CCC[C@H]1C(=O)N[C@@H](Cc1ccc(O)cc1)C(=O)N2  Emax (Tumor necrosis factor receptor superfamily member 9/Nectin-4 (Homo sapiens, UniProt Q07011+Q96NY8); reporter gene, agonist, luciferase reporter; CD137 Jurkat reporter with HT-1376; 6 h, geometric mean; relative to: wells without compound): 21 fold

A few entries again:
CC(C)=CCC/C(C)=C/CCn1cc(CC(C)(P(=O)(O)O)P(=O)(O)O)nn1  cellular uptake (SLCO1B3; OATP1B3-transfected cells; 50 µM, 5 min, pH 7.4; relative to: mock-transfected cells): 3.5 fold
CC(C)[C@H]1NC(=O)C[C@H]2/C=C/CCSSC[C@@H](NC1=O)C(=O)N[C@H](Cc1cccc3ccccc13)C(=O)NCC(=O)O2  inhibition (Aurora kinase C (AURKC, Homo sapiens, UniProt Q9UQB9); enzyme activity, inhibitor; 10 µM): -4.4%
COc1ccccc1-c1n[nH]c2nc(NC3CCN(C(=O)Cc4ccc(F)cc4F)CC3)ncc12  relative abundance (bead binding, competition bead pull-down, refers to: LINJ.30.3000; Leishmania donovani extract; 10 µM; relative to: vehicle): 1.03
